Published values from different studies.
Lines come from different studies, so protocols differ. Numbers after ± are the reported error.
UniProt P08684, sequence (whole entry, looked up): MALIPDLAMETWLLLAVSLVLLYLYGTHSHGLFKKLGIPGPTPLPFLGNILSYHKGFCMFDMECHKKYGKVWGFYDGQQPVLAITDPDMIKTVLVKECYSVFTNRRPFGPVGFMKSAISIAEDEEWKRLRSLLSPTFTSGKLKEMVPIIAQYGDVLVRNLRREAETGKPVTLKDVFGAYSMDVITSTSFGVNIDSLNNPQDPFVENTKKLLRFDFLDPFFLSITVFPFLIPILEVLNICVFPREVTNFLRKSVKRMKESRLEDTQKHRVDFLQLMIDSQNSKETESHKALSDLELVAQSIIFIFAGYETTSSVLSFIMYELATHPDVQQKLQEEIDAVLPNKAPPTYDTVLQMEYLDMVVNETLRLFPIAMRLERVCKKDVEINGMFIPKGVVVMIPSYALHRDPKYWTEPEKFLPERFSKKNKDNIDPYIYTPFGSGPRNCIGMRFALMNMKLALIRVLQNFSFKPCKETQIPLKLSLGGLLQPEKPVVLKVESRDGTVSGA
UniProt P10632, sequence (whole entry, looked up): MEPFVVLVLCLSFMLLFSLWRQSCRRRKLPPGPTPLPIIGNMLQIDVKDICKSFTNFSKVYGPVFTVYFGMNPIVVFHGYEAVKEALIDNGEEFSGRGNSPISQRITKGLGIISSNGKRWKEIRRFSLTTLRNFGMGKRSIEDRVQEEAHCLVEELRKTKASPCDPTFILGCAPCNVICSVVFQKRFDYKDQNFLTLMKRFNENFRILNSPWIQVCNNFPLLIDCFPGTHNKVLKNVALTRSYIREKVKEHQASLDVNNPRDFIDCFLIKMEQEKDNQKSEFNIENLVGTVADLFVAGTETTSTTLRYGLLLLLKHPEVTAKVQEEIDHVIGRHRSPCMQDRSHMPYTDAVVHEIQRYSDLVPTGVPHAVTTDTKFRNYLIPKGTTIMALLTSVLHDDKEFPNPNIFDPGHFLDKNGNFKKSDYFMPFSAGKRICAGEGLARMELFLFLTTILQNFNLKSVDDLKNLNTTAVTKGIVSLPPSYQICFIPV

SMILES	tested on	test	system	setting	scale	quantity	value
Cc1cccc(CNC(=O)c2cn(CCNC(=O)c3ccccc3Sc3c([N+](=O)[O-])ncn3C)c3cc4c(cc3c2=O)OCO4)n1	–	–	human, whole blood	1 µM, 0.25 h	–	remaining compound	93.3%
Cc1cc(Nc2ccc(S(F)(F)(F)(F)F)cc2)n2nc(C(C)(F)F)nc2n1	Plasmodium falciparum	–	P. falciparum malaria patients	oral, 250 mg	–	patients with blurred vision	0%
Cc1cc(NC(=O)c2cccc(NC(=O)/C=C/CN(C)C)c2)ccc1Nc1nccc(-c2cccnc2)n1	–	–	rat Wistar male, plasma	1 µM, 60 min	–	remaining compound	92%
NCc1cc2c(cc1F)C(=O)N(C1CCC(=O)NC1=O)C2 (stereo not shown)	–	–	human, mixed sex, whole blood	3 h	–	remaining compound	> 95%
CC(C)C[C@H](NC(=O)[C@H](CCc1ccccc1)NC(=O)CN1CCOCC1)C(=O)N[C@@H](Cc1ccccc1)C(=O)N[C@@H](CC(C)C)C(=O)[C@@]1(C)CO1	–	–	Sprague Dawley rat, male, rat liver homogenate	1 µM, 10 min, 37 °C	–	remaining compound	< 10%
Cc1cc(Nc2ncnc3ccc(NC4=NC(C)(C)CO4)cc23)ccc1Oc1ccn2ncnc2c1	Cytochrome P450 2C8 (CYP2C8, Homo sapiens, UniProt P10632)	–	human, plasma	oral, 300 mg single dose, day 1, arithmetic mean	–	Cmax	442 ng/mL
CC(C)[N+](C)(CCOC(=O)C1c2ccccc2Oc2ccccc21)C(C)C	–	–	human, both sexes, whole blood	5 µM, 15 min	–	remaining compound	80.2%
CC[C@H]1[C@@H](O)[C@@H]2[C@H](CC[C@]3(C)[C@@H]([C@H](C)CCNC(=O)NS(=O)(=O)c4ccc(C(C)(C)C)cc4)CC[C@@H]23)[C@@]2(C)CC[C@@H](O)C[C@@H]12	Cytochrome P450 3A4 (CYP3A4, Homo sapiens, UniProt P08684)	–	human, plasma	10 mg, day 1, compound alone	–	half-life mean	12.2 h
C/C(=N\c1ccc(O)cc1)c1cc2ccccc2n1C	–	–	rat plasma	1.5 ng/mL, time not given, 3 freeze-thaw cycles	relative to: nominal	remaining compound	96.1 ± 8.2%
CC(C)C[C@H](NC(=O)[C@H](CC(C)C)NC(=O)CNC(=O)[C@H](C)NC(=O)[C@H](C)NC(=O)[C@H](CCCNC(=N)N)NC(=O)CNC(=O)CCCCNC(=O)CCCCNC(=O)CCCCNC(=O)[C@H](CCCCN)NC(=O)[C@H](Cc1ccc(O)cc1)NC(=O)CCc1c[nH]c2ccccc12)C(N)=O	–	–	Sprague-Dawley rat, male, plasma	1 µM, 0.25 h	–	remaining compound	86 ± 9%
NC/C(=C\F)COc1cccc(Cn2c(=S)[nH]c(=O)c3[nH]cnc32)c1	–	–	human plasma	1 µM, 1 h	–	remaining compound	100%
Cn1cc(-c2ccc(-c3cncc(Cl)c3N3CCC4(CCNC4=O)CC3)cc2)cn1	COLO 205	gene expression, microarray, refers to: CDC20 mRNA	–	concentration not given, 2 h	relative to: untreated cells	log2 fold change	-1.82
COc1cc2c3cc1Oc1c(OC)c(OC)cc4c1[C@@H](Cc1ccc(O)c(c1)Oc1ccc(cc1)C[C@@H]3N(C)CC2)N(C)CC4	–	–	mouse plasma, K3EDTA	2 h, on ice	–	remaining compound	98%

For quick reference, copied from above:
SMILES	tested on	test	system	setting	scale	quantity	value
Cc1cc(NC(=O)c2cccc(NC(=O)/C=C/CN(C)C)c2)ccc1Nc1nccc(-c2cccnc2)n1	–	–	rat Wistar male, plasma	1 µM, 60 min	–	remaining compound	92%
Cc1cc(Nc2ncnc3ccc(NC4=NC(C)(C)CO4)cc23)ccc1Oc1ccn2ncnc2c1	Cytochrome P450 2C8 (CYP2C8, Homo sapiens, UniProt P10632)	–	human, plasma	oral, 300 mg single dose, day 1, arithmetic mean	–	Cmax	442 ng/mL
